Measurements from different studies.
Parts stem from different laboratories: compare values within a part only.
Chain of UniProt O96013 (whole entry, looked up): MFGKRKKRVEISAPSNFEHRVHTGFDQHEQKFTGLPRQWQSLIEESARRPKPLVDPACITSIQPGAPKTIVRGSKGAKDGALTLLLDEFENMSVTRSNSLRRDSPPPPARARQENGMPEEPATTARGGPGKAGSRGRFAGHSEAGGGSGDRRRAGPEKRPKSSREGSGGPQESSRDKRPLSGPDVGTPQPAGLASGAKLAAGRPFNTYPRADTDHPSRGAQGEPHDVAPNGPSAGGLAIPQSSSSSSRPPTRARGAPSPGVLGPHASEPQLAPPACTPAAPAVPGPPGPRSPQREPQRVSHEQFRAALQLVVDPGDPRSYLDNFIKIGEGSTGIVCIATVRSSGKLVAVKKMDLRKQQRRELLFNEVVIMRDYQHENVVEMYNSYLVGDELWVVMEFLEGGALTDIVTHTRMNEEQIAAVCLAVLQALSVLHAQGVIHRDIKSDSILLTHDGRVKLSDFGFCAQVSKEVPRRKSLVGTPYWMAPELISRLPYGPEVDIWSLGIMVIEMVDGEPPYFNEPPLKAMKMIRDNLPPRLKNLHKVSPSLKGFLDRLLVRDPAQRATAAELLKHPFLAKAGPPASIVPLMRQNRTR
Chain of UniProt Q00535 (whole entry, looked up): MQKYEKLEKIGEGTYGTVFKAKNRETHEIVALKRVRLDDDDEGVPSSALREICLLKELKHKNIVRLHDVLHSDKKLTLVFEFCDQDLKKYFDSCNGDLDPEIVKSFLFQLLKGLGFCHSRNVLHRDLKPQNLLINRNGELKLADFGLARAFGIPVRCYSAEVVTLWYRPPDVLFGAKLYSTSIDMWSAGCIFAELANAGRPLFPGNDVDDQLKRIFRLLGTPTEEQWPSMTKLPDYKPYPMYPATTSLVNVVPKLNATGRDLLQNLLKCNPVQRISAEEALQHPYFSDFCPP
Chain of UniProt Q05513 (whole entry, looked up): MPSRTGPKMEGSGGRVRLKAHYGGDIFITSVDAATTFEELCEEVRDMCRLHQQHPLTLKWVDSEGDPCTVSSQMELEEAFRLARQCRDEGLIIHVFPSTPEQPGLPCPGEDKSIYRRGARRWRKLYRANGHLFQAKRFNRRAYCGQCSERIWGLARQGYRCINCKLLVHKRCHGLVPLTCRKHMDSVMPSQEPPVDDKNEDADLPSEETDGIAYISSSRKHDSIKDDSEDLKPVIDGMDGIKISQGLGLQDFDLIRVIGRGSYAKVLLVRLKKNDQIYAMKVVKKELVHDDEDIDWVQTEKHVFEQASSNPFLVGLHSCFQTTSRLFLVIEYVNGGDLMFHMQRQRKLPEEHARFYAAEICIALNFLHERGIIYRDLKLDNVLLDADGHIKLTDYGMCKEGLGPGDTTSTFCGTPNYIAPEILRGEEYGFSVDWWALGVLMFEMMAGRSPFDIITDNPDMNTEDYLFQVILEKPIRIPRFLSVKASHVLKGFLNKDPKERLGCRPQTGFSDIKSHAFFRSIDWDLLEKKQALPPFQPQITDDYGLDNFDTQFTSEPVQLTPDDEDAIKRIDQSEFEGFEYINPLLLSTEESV
Chain of UniProt O15146 (whole entry, looked up): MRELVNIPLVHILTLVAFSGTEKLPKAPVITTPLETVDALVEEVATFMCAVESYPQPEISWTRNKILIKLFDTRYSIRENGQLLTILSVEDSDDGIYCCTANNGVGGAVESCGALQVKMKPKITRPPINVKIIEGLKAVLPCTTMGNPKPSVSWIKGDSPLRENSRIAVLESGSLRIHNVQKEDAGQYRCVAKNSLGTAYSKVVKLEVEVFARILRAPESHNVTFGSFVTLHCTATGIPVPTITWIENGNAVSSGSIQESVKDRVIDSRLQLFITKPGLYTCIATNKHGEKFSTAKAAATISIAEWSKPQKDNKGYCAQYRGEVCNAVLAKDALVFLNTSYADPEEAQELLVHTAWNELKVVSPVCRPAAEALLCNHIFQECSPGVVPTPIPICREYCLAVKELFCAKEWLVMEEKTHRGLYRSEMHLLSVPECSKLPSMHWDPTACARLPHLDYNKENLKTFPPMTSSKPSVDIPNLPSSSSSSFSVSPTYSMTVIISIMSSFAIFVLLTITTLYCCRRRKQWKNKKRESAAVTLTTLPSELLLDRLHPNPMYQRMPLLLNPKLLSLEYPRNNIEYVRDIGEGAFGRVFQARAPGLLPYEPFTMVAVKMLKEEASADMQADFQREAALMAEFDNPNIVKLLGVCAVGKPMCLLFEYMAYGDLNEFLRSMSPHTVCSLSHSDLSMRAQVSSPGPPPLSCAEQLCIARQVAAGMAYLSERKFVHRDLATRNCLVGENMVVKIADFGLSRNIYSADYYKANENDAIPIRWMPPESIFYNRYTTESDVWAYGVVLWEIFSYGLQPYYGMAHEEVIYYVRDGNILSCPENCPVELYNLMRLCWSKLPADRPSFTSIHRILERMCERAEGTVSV
Chain of UniProt P37023 (whole entry, looked up): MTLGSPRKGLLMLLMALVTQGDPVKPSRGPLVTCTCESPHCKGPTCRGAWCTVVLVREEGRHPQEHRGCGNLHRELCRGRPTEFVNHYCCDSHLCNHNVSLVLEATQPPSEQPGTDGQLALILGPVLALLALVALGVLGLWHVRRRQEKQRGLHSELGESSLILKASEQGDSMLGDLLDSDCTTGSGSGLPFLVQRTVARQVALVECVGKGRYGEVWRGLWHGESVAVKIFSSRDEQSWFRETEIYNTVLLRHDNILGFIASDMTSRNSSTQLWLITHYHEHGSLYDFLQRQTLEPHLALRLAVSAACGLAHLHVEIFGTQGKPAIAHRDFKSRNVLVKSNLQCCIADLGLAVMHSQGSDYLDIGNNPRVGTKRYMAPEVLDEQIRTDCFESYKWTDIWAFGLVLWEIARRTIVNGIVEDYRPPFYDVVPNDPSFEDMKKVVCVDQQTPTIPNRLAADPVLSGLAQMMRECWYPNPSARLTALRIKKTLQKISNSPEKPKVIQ
Chain of UniProt P11309 (whole entry, looked up): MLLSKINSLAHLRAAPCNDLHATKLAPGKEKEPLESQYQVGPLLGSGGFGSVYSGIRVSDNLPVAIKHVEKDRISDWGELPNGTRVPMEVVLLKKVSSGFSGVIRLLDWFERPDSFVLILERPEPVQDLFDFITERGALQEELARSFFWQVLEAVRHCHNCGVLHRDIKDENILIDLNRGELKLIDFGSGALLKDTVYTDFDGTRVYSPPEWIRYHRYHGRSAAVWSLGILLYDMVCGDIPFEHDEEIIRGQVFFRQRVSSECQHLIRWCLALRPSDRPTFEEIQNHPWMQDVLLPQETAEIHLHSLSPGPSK
Chain of UniProt Q9NYY3 (whole entry, looked up): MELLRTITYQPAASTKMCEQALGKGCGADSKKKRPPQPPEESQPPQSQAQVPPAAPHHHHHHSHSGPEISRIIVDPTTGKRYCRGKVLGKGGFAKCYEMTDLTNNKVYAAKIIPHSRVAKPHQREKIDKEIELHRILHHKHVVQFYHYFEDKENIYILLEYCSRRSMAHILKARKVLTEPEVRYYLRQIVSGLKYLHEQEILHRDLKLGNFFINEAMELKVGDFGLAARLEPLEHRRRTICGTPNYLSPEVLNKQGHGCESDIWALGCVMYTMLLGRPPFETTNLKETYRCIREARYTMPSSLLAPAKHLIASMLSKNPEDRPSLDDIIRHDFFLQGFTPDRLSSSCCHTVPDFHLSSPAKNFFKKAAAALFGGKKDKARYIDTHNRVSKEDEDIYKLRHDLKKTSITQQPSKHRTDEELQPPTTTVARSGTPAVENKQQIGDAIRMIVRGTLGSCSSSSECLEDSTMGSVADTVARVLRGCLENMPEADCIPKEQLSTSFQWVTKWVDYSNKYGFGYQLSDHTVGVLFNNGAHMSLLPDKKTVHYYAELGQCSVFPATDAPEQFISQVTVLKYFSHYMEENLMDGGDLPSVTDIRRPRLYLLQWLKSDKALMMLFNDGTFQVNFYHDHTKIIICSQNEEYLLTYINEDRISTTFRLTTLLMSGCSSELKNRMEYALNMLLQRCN
Chain of UniProt Q14680 (whole entry, looked up): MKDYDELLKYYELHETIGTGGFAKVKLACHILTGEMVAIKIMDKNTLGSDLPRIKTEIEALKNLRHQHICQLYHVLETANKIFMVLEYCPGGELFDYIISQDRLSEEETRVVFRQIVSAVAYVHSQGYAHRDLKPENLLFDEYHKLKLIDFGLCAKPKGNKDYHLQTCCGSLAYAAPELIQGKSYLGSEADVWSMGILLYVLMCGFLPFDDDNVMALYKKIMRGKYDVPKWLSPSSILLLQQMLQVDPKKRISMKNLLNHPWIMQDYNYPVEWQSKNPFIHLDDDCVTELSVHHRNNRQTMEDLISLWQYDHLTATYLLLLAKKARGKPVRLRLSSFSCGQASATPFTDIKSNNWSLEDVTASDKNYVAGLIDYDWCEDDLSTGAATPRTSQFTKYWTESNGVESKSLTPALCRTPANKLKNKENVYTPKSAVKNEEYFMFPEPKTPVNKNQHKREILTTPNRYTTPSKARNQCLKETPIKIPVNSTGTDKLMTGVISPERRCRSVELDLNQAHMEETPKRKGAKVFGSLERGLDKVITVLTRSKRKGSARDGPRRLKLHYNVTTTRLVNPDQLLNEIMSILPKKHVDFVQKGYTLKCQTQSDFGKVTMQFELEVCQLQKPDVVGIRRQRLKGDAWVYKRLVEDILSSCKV

Block 1
Target: Fragile X messenger ribonucleoprotein 1, C-terminal low-complexity region (Fmr1, Mus musculus, UniProt P35922)
Technique: RNA Bind-n-Seq
Form: RNA
Sample: in vitro
Concentration: 200 nM
Notes: whole 134-nt RNA, ends assumed
Together with: 150 mM KCl
Relative to: input library
Direction: higher = stronger binding
Shared flanks, not repeated: GGGAGUUCUACAGUCCGACGAUC … UGGAAUUCUCGGGUGUCAAGG
`AAGUCCUGUGCUACACAUCGUAUGUACCGAAUCGGAAAGGGGAAAGGGGAAAGGGGAAAGUAUUAUGUUACGCCGUUCGGAUCUGCACUU` gave a log2 enrichment of 0.171.
The log2 enrichment of `GCAGGCAGUAAAAACAAAUGGAAAUGCUUCGGAUAGUGGCAGGGGUGGGGGUUGCUAAGGAAAGGGUGGGAUGGGAGUGGGUAAAGAGUU` is reported as 0.62.
The log2 enrichment of `AGUCCUGUGCUACACAUCGUAUGUACCGAAUCGGGCCCCGGGCCCCGGGGCCCCGGGGAAAGUAUUAUGUUACGCCGUUCGGAUCUGCAC` is reported as -1.21.
For `AAGUCCUGUGCUACACAUCGUAUGUACCGAAUCGGAAAAAGGAAAAAGGAAAAAGGGAAAGUAUUAUGUUACGCCGUUCGGAUCUGCACU`, the log2 enrichment was -0.844.
The log2 enrichment of `GUCCUGUGCUACACAUCGUAUGUACCGAAUCGGUUUUUUGGGUUUUUUGGUUUUUUGGGAAAGUAUUAUGUUACGCCGUUCGGAUCUGCA` is reported as -0.84.
The log2 enrichment of `UAACUUUAGAGGAGGAUCUGAUGGAUAUGGCACUGGACGUGGAUUUGGGGAUGGCUAUAAUGGGUAUGGAGGAGGACCUGGAGGUGGCAA` is reported as 0.457.
`AAGUCCUGUGCUACACAUCGUAUGUACCGAAUCGGGAAAAAGGAAAAAGGAAAAAGGAAAGUAUUAUGUUACGCCGUUCGGAUCUGCACU` gave a log2 enrichment of -0.829.
With `UUGAGAAGAAGCAAAAAGAGAUGGAUGAAGCUGCUACGGUGAGAGAAAACCCACUAUCGAUUCCACUCACCACUUACCUCCUUCCCUUAC` the log2 enrichment was 0.245.

Block 2
Compound: O=C(Nc1ccc(Cl)cc1)c1ccccc1NCc1ccncc1
Read-out: enzyme activity
Action: inhibitor
Concentration: 0.5 µM
Relative to: control
For Activin receptor type-1-like (ACVRL1, Homo sapiens, UniProt P37023): remaining activity read 98.9%.
It gave 97.1% for remaining activity (Dual specificity tyrosine-phosphorylation-regulated kinase 1A (DYRK1A, Homo sapiens, UniProt Q13627)).
The remaining activity was 98.9% (Serine/threonine-protein kinase pim-1 (PIM1, Homo sapiens, UniProt P11309)).
It gave 90.4% for remaining activity (Cyclin-dependent kinase 5, with p35 (CDK5, Homo sapiens, UniProt Q00535)).
Cyclin-dependent kinase 2, with cyclin E (CDK2, Homo sapiens, UniProt P24941) — remaining activity: 94.3%.
Muscle, skeletal receptor tyrosine-protein kinase (MUSK, Homo sapiens, UniProt O15146) — remaining activity: 95.9%.
For Maternal embryonic leucine zipper kinase (MELK, Homo sapiens, UniProt Q14680): remaining activity read 92.3%.
It gave 105% for remaining activity (Tyrosine-protein kinase receptor TYRO3 (TYRO3, Homo sapiens, UniProt Q06418)).
Serine/threonine-protein kinase PAK 4 (PAK4, Homo sapiens, UniProt O96013) — remaining activity: 90.6%.
For Tyrosine-protein kinase Yes (YES1, Homo sapiens, UniProt P07947): remaining activity read 95.3%.
Vascular endothelial growth factor receptor 1 (FLT1, Homo sapiens, UniProt P17948) — remaining activity: 24.8%.
The remaining activity was 98.7% (Receptor tyrosine-protein kinase erbB-2 (ERBB2, Homo sapiens, UniProt P04626)).
The remaining activity was 100% (Protein kinase C zeta type (PRKCZ, Homo sapiens, UniProt Q05513)).

Block 3
Target: ATP-dependent RNA helicase DDX3X, helicase core (DDX3X, Homo sapiens, UniProt O00571, residues 132-607)
Chain of UniProt O00571 (132-607, looked up): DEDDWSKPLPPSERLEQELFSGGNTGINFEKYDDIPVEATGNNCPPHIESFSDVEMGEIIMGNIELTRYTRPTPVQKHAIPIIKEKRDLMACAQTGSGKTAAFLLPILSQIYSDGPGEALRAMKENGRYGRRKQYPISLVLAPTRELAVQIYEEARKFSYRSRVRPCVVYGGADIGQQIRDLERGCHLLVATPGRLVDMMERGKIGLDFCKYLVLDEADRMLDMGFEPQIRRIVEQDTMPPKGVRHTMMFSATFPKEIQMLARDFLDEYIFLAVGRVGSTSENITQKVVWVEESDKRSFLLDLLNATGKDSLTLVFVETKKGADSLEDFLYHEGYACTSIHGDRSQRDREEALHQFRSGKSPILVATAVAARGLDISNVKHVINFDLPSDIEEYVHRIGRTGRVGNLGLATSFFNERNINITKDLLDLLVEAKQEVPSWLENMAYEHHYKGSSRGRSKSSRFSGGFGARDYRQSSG
Technique: RNA Bind-n-Seq
Form: RNA
Sample: in vitro
Concentration: not given
Notes: 4-mer, random 30-nt RNA, single round
Together with: RocA, ADP, phosphate
Relative to: input library
Direction: higher = stronger binding
The 4-mer enrichment of `AGAU` is reported as 1.16 fold.
`CUGU` has a 4-mer enrichment of 0.798 fold.
`UGGG` has a 4-mer enrichment of 1.3 fold.
The 4-mer enrichment of `GCGC` is reported as 0.803 fold.
`AUCG` gave a 4-mer enrichment of 0.892 fold.
`UAGU` has a 4-mer enrichment of 1.04 fold.
For `UGCU`, the 4-mer enrichment was 0.681 fold.
`ACGA` gave a 4-mer enrichment of 1.11 fold.

Other studies, line by line
`CC(C)CC(=O)N1CCc2nc(-c3ccc(Br)cc3)nc(N(C)Cc3ccccc3)c2C1` has a remaining binding of 100% (Serine/threonine-protein kinase PLK2 (PLK2, Homo sapiens, UniProt Q9NYY3); cell-free assay, competition with immobilised ligand; 0.1 µM).

Repeated from above (block 3):
For `UGCU`, the 4-mer enrichment was 0.681 fold.
`UAGU` has a 4-mer enrichment of 1.04 fold.
`ACGA` gave a 4-mer enrichment of 1.11 fold.
`UGGG` has a 4-mer enrichment of 1.3 fold.
